Measured values pooled from the literature.
A part holds a random share of what one study measured. “And” joins repeats or separate records; there may be more than shown.
Chain of UniProt P28221 (whole entry, looked up): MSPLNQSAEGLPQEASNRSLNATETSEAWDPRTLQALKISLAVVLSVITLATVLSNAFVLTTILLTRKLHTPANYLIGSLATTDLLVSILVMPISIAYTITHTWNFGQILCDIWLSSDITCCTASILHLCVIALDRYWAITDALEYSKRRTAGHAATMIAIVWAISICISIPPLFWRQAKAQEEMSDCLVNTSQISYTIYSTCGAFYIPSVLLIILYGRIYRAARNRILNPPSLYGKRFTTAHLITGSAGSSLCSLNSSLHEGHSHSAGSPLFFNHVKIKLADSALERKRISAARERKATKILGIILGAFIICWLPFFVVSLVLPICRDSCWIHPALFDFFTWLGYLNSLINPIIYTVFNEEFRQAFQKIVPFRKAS
Chain of UniProt P28566 (whole entry, looked up): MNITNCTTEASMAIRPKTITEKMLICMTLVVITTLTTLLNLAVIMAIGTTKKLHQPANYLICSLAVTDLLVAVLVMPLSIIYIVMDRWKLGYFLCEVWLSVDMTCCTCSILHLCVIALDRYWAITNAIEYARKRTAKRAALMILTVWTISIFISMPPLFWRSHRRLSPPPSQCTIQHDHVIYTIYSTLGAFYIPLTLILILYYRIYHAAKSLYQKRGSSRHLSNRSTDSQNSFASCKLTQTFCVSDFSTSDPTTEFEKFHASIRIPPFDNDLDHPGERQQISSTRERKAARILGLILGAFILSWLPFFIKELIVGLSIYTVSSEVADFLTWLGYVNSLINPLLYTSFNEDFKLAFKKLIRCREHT
Chain of UniProt P41595 (whole entry, looked up): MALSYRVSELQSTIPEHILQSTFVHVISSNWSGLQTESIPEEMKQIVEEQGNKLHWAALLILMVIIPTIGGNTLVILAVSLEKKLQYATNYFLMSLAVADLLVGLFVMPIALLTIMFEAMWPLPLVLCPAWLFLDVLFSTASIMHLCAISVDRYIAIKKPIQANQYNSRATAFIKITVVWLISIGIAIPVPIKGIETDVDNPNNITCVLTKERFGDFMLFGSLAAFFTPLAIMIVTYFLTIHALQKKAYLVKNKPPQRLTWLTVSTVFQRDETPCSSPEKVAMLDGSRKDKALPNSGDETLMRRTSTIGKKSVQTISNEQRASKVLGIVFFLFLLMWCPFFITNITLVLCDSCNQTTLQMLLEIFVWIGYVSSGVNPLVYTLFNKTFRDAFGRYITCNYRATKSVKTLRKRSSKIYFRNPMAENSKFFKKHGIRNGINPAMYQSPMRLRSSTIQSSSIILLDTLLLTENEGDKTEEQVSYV
Chain of UniProt P46098 (whole entry, looked up): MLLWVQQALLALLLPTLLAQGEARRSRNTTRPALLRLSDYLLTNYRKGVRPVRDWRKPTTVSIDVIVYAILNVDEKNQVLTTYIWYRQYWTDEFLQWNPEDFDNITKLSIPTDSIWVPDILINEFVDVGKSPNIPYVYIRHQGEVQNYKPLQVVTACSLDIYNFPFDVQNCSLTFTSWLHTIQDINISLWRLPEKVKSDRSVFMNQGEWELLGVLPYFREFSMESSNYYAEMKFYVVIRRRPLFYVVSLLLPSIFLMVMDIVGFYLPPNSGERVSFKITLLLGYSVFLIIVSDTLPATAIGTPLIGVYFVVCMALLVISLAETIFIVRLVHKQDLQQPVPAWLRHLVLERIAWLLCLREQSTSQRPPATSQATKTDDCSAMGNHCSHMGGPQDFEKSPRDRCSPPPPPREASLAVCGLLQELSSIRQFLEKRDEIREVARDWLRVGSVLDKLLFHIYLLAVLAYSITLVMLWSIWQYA

Block 1 — observed: binding; technique: radioligand binding; concentration: 10 µM
Structure (SMILES): CC(=O)Nc1c(F)cc(C(=O)N[C@H]2CC[C@H](O)CC2)cc1O[C@@H](C)c1ccccc1
target | inhibition [%]
5-hydroxytryptamine receptor 1E (HTR1E, Homo sapiens, UniProt P28566) | -15.4
5-hydroxytryptamine receptor 1D (HTR1D, Homo sapiens, UniProt P28221) | 84.2
5-hydroxytryptamine receptor 3A (HTR3A, Homo sapiens, UniProt P46098) | 3.77
5-hydroxytryptamine receptor 2B (HTR2B, Homo sapiens, UniProt P41595) | -6.98

Block 2 — organism: Sarcocystis neurona; observed: parasite growth; concentration: 10 µM; time: 96 h; relative to: untreated
Compound | log2 fold change
CC(=O)N1CCN(c2ccc(OCC3COC(Cn4ccnc4)(c4ccc(Cl)cc4Cl)O3)cc2)CC1 (stereo not drawn) | -0.13
CN(C)[C@@H]1C(O)=C(C(N)=O)C(=O)[C@@]2(O)C(O)=C3C(=O)c4c(O)ccc(Cl)c4[C@@H](O)[C@H]3C[C@@H]12 | -0.28
C[C@H]1O[C@H](O[C@H]2[C@H](O)[C@@H](O)[C@@H](O[C@H]3[C@H](O)[C@@H](O)C(O)O[C@@H]3CO)O[C@@H]2CO)[C@H](O)[C@@H](O)[C@@H]1N[C@H]1C=C(CO)[C@@H](O)[C@H](O)[C@H]1O (stereo partly drawn) | 0.32
O=C1NC(=O)C(c2ccccc2)(c2ccccc2)N1 | -0.12
CC(CCc1ccccc1)NCC(O)c1ccc(O)c(C(N)=O)c1 (stereo not drawn) | 0.38
CN(C)[C@@H]1C(O)=C(C(N)=O)C(=O)[C@@]2(O)C(O)=C3C(=O)c4c(O)cccc4[C@@](C)(O)[C@H]3[C@H](O)[C@@H]12 | -0.15
CCC[C@@H]1C[C@@H](C(=O)N[C@@H]([C@H]2O[C@H](SC)[C@H](O)[C@@H](O)[C@H]2O)[C@@H](C)O)N(C)C1 | -0.26
CO[C@H]1/C=C/O[C@@]2(C)Oc3c(C)c(O)c4c(O)c(c5c(nc6cc(C)ccn65)c4c3C2=O)NC(=O)/C(C)=C\C=C\[C@H](C)[C@H](O)[C@@H](C)[C@@H](O)[C@@H](C)[C@H](OC(C)=O)[C@@H]1C | 0.29
CCOC(=O)[C@H](CCc1ccccc1)N[C@@H](C)C(=O)N1Cc2ccccc2C[C@H]1C(=O)O | 0.37
O=c1n(CCCN2CCN(c3cccc(Cl)c3)CC2)nc2ccccn12 | 0.32
CC1(C)O[C@@H]2C[C@H]3[C@@H]4CCC5=CC(=O)C=C[C@]5(C)[C@@]4(F)[C@@H](O)C[C@]3(C)[C@]2(C(=O)CO)O1 | 0.33
COc1ccc2c3c1O[C@H]1C[C@@H](O)C=C[C@@]31CCN(C)C2 | 0.28
O=C1CC[C@@H](C(=O)N2CSC[C@H]2C(=O)O)N1 | 0.26
CC(C)NCC(O)COc1cccc2[nH]ccc12 (stereo not drawn) | 0.39

Block 3 — target: panel of 300 human kinases; concentration: 0.5 µM; reading: higher = more selective
Structure (SMILES) | Gini score
CC(C)N(CCC(=O)c1ccc2ccccc2c1)Cc1ccccc1 | 0.65
COc1cc2c(N3CCN(C(=O)Nc4ccc(OC(C)C)cc4)CC3)ncnc2cc1OCCCN1CCCCC1 | 0.78
O=C(CCCc1ccc(-c2ccccc2F)cc1)Nc1ccc(O)cc1 | 0.71
CNC(=O)c1cc(Oc2ccc(NC(=O)Nc3ccc(Cl)c(C(F)(F)F)c3)cc2)ccn1 | 0.79
N#CC(C#N)=C(N)/C(C#N)=C/c1ccc(O)cc1 | 0.61
CN(C)c1ccc(C=C2C(=O)Nc3ccccc32)cc1 | 0.72
Nc1ncnc2n[nH]c(Nc3ccc(F)cc3)c12 | 0.63
CCCCc1c(-c2ccc(O)cc2)[nH]c2nccnc12 | 0.57
CNc1cc2c(Nc3cccc(Br)c3)ncnc2cn1 | 0.6
c1cc(-c2cnn3cc(-c4ccc(OCCN5CCCCC5)cc4)cnc23)ccn1 | 0.56

Block 4 — organism: Leishmania infantum; technique: qPCR, delta Ct; species: golden hamster, infected; route: oral; dose: 10 mg/kg/day; time: 10 days; relative to: microglobulin reference gene
SMILES: c1ccc(Oc2ccc(Nc3c4c(nc5ccccc35)CCC4)cc2)cc1
measured | sample | relative mRNA level
TNF | liver | 8.79 and 7.17 and 4.74 and 8.93 and 6.4 and 6.33
TGF-beta | liver | 8.17 and 7.81 and 6.27 and 6.28 and 4.88 and 7.61
IL17 | liver | 11.8 and 14 and 12.9 and 13.5 and 11
TGF-beta | spleen | -0.0545 and 0.625 and 1.31 and 3.31 and 1.06 and -0.12
IL10 | liver | 10.6 and 10.1 and 12.8 and 13 and 12.3 and 11.6
IL4 | spleen | -0.246 and 0.571 and 4.02 and 1.21 and 0.482 and -0.278
IFN-gamma | liver | 9.5 and 11.1 and 9.99 and 11.8
IL17 | spleen | 9.37 and 7.88 and 9.12 and 7.53 and 8.17 and 6.73

Repeated from above (block 1):
target | inhibition [%]
5-hydroxytryptamine receptor 1D (HTR1D, Homo sapiens, UniProt P28221) | 84.2
5-hydroxytryptamine receptor 1E (HTR1E, Homo sapiens, UniProt P28566) | -15.4
